{"data": "Measured values from different studies", "note": "Compare with care: the assays were run in different laboratories.", "sequence of UniProt Q9UPZ9 (whole entry, looked up)": "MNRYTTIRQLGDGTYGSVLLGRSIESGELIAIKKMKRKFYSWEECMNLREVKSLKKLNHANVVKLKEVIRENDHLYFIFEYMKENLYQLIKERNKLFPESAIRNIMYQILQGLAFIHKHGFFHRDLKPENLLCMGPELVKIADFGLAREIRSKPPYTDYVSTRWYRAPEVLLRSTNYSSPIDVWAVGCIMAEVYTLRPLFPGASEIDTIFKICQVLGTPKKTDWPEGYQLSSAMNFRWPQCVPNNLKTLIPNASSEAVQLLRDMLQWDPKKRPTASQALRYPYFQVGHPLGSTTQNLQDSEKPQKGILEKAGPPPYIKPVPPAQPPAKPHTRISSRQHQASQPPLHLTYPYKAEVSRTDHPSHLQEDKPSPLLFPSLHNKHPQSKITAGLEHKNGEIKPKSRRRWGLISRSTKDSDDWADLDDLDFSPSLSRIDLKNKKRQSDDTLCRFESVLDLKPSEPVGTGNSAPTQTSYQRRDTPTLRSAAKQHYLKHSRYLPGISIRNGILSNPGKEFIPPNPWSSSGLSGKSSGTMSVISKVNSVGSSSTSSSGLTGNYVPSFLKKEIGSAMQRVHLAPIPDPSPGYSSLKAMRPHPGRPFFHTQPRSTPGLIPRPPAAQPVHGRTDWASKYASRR", "sequence of UniProt Q9UQ88 (whole entry, looked up)": "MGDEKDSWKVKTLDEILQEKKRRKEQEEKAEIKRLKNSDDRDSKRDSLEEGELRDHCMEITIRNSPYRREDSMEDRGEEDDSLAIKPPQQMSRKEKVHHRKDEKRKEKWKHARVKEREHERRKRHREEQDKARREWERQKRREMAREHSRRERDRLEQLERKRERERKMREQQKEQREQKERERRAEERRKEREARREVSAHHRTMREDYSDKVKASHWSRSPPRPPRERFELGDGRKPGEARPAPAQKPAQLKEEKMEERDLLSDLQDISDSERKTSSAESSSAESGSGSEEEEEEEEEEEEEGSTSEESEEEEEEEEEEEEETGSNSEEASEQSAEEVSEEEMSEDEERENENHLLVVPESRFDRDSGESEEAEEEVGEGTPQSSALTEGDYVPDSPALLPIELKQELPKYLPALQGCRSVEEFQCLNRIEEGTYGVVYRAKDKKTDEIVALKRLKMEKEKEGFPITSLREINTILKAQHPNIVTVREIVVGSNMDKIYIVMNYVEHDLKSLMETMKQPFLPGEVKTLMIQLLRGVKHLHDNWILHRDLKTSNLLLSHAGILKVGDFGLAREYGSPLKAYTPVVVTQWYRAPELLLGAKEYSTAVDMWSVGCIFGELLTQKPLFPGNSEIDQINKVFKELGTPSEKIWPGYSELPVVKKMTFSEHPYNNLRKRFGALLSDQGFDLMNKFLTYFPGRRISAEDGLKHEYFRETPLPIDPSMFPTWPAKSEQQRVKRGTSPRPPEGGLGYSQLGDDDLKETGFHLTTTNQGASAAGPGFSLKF", "sequence of UniProt P23975 (whole entry, looked up)": "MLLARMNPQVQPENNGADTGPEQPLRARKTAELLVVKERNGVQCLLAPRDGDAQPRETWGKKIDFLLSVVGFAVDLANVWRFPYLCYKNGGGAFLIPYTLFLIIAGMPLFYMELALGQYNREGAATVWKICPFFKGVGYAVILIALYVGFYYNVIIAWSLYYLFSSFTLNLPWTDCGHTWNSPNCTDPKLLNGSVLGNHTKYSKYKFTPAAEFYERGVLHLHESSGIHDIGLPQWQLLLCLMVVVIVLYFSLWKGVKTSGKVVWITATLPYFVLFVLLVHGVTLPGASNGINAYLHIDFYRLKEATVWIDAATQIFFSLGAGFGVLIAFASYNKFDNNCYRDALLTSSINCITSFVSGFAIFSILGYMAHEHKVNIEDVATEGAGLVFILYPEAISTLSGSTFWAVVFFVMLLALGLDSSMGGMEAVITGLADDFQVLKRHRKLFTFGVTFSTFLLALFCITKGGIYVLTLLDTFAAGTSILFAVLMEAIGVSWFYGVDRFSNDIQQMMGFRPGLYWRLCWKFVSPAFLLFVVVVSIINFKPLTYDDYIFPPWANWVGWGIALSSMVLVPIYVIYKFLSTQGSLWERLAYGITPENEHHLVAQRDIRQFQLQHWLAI"}
{"Structure (SMILES)": "C#Cc1ccc2c(c1)C(c1ccccn1)=NCc1c(-c3cnco3)ncn1-2.Cl", "test system": "water", "setting": "2 h, 37 °C", "quantity": "kinetic solubility", "result": "6820 µg/mL"}
{"Structure (SMILES)": "CCOC(=O)C1=C(CN2CCC[C@H]2C(=O)Nc2cccc(B(O)O)c2)NC(c2nccs2)=N[C@@H]1c1ccc(F)cc1Br", "target or system": "HepDES19", "test": "cell growth or viability, MTS", "setting": "72 h", "quantity": "CC50", "result": "33.7 µM"}
{"Structure (SMILES)": "C[N+]1=C2C=C(N/C=C/c3ccc(O)cc3)C(=O)c3[nH]cc(c32)CC1", "target or system": "HepG2", "test": "cell growth or viability, MTT", "setting": "72 h", "quantity": "CC50", "result": "5 µM"}
{"Structure (SMILES)": "CC(C)(C)[C@H](NC(=O)C(F)(F)F)C(=O)N1C[C@H]2[C@@H]([C@H]1C(=O)N[C@H](C#N)C[C@@H]1CCNC1=O)C2(C)C", "target or system": "Caco-2", "test": "cell growth or viability", "quantity": "CC50", "result": "> 100 µM"}
{"Structure (SMILES)": "[2H]c1c([2H])c([C@]2([2H])CCCN2C(=O)C(C)(C)Oc2ccc3cn[nH]c3c2)c([2H])c([2H])c1C([2H])([2H])[2H]", "target or system": "DYRK1B (Homo sapiens, UniProt Q9Y463)", "test": "binding, competition with immobilised ligand", "setting": "1 µM", "quantity": "remaining binding", "result": "65%"}
{"Structure (SMILES)": "CCOC(=O)C1=C(CN2CCN(Cc3cccc(B(O)O)c3)CC2)NC(c2nccs2)=NC1c1ccc(F)cc1Br (stereo not shown)", "target or system": "HepDES19", "test": "cell growth or viability, MTS", "setting": "72 h", "quantity": "CC50", "result": "30.8 µM"}
{"Structure (SMILES)": "CC(C)C[C@H](NC(=O)[C@@H](NC(=O)c1ccc(-c2ccccc2)cc1)C(C)C)C(=O)N[C@H](C=O)C[C@@H]1CCCNC1=O", "target or system": "A549", "test": "cell growth or viability, MTT", "setting": "24 h", "quantity": "CC50", "result": "> 100 µM"}
{"Structure (SMILES)": "O=c1nc(NO)ccn1[C@@H]1O[C@H](CO)[C@@H](O)[C@H]1O", "target or system": "Calu-3", "test": "cell growth or viability", "quantity": "CC50", "result": "> 100 µM"}
{"Structure (SMILES)": "Cc1nn(C)cc1-c1nc2c(N3CCN(Cc4ccc(Cl)cc4)CC3)c(Cl)cnc2[nH]1", "target or system": "CILK1 (Homo sapiens, UniProt Q9UPZ9)", "test": "binding, competition with immobilised ligand", "setting": "1 µM", "quantity": "remaining binding", "result": "92%"}
{"Structure (SMILES)": "CCOC(=O)C1=C(CN2CCCC2C(=O)Nc2cccc(B3OC(C)(C)C(C)(C)O3)c2)NC(c2nccs2)=NC1c1ccc(F)cc1Br (stereo not shown)", "target or system": "HepDES19", "test": "cell growth or viability, MTS", "setting": "72 h", "quantity": "CC50", "result": "29.5 µM"}
{"Structure (SMILES)": "CC(C)C[C@H](NC(=O)[C@@H](NC(=O)C1CCOCC1)C(C)C)C(=O)N[C@H](C=O)C[C@@H]1CCCNC1=O", "target or system": "A549", "test": "cell growth or viability, MTT", "setting": "24 h", "quantity": "CC50", "result": "> 100 µM"}
{"Structure (SMILES)": "Nc1ncc(-c2nc(N3CCOCC3)nc(N3CCOCC3)n2)c(C(F)F)n1", "target or system": "SLC6A2 (Homo sapiens, UniProt P23975)", "test": "cell-free assay, radioligand", "setting": "10 µM", "quantity": "remaining signal", "result": "98.5%"}
{"Structure (SMILES)": "N.N.[Cl][Pt][Cl]", "target or system": "SU-DHL-1", "test": "cell growth or viability, ATP luminescence", "setting": "10 µM, 72 h", "quantity": "inhibition", "result": "100%"}
{"Structure (SMILES)": "COc1cc(CCNC(C)c2ccccc2O)c(OC)cc1C#N (stereo not shown)", "target or system": "ADRB2 (Homo sapiens, UniProt P07550)", "test": "cell-free assay, radioligand", "quantity": "Ki", "result": "0.279 µM"}
{"Structure (SMILES)": "C[C@H]1CCC/C=C/[C@@H]2C[C@H](O)C[C@H]2[C@H](O)/C=C/C(=O)O1", "target or system": "HepG2", "test": "cell growth or viability, ATP luminescence", "setting": "72 h", "quantity": "CC50", "result": "60 µM"}
{"Structure (SMILES)": "CC(C)C[C@H](NC(=O)/C=C/c1ccccc1)C(=O)N[C@H](C=O)C[C@@H]1CCNC1=O", "target or system": "A549", "test": "cell growth or viability, MTT", "setting": "24 h", "quantity": "CC50", "result": "> 100 µM"}
{"Structure (SMILES)": "COc1ccc(Nc2nn3c(-c4ccccc4)ccnc3c2C(=O)Nc2ccccc2)cc1", "target or system": "A549", "test": "cell growth or viability, MTT", "setting": "100 µg/mL, 48 h, serum-free", "quantity": "viability", "result": "21.4%"}
{"Structure (SMILES)": "CCOC(=O)C1=C(CN2CCN(Cc3ccccc3B(O)O)CC2)NC(c2nccs2)=NC1c1ccc(F)cc1Br (stereo not shown)", "target or system": "HepDES19", "test": "cell growth or viability, MTS", "setting": "72 h", "quantity": "CC50", "result": "> 50 µM"}
{"Structure (SMILES)": "COc1ncccc1-c1cnn2ccc(N3CCN(C(=O)OC(C)C)CC3)nc12", "target or system": "CDK11A (Homo sapiens, UniProt Q9UQ88)", "test": "binding, competition with immobilised ligand", "setting": "1 µM", "quantity": "remaining binding", "result": "100%"}
{"Structure (SMILES)": "Cc1sc2c(c1C)C(c1ccc(Cl)cc1)=N[C@H](CC(=O)OC(C)(C)C)c1nnc(C)n1-2", "target or system": "OCI-Ly1", "test": "cell growth or viability, ATP luminescence", "setting": "0.5 µM, 5 days", "quantity": "viability", "result": "141%"}
{"Structure (SMILES)": "CCC(CC)COC(=O)[C@H](C)N[P@](=O)(OC[C@H]1O[C@@](C#N)(c2ccc3c(N)ncnn23)[C@H](O)[C@@H]1O)Oc1ccccc1", "target or system": "Caco-2", "test": "cell growth or viability", "quantity": "CC50", "result": "> 100 µM"}
{"Structure (SMILES)": "COc1ccc2cc1Oc1ccc(cc1)C[C@H]1c3cc(c(OC)cc3CCN1C)Oc1c(O)c(OC)cc3c1[C@H](C2)N(C)CC3", "target or system": "MDCK", "test": "cell growth or viability, CCK-8", "setting": "48 h", "quantity": "CC50", "result": "47.7 µM"}
{"Structure (SMILES)": "CC[C@H](C)[C@H](NC(=O)[C@H](Cc1ccccc1)NC(=O)[C@H](CCC(=O)O)NC(=O)[C@H](CCCNC(=N)N)NC(=O)[C@H](C)NC(=O)[C@H](C)NC(=O)[C@H](CCC(N)=O)NC(=O)[C@H](CCC(=O)O)NC(=O)[C@H](CCC(=O)O)NC(=O)[C@H](CC(C)C)NC(=O)[C@H](Cc1ccc(O)cc1)NC(=O)[C@H](CO)NC(=O)[C@H](CO)NC(=O)[C@@H](NC(=O)[C@H](CC(=O)O)NC(=O)[C@H](CO)NC(=O)[C@@H](NC(=O)[C@H](Cc1ccccc1)NC(=O)[C@@H](NC(=O)CNC(=O)[C@H](CCC(=O)O)NC(=O)[C@H](C)NC(=O)CCc1c[nH]cn1)[C@@H](C)O)[C@@H](C)O)C(C)C)C(=O)N[C@@H](C)C(=O)N[C@@H](Cc1c[nH]c2ccccc12)C(=O)N[C@@H](CC(C)C)C(=O)N[C@H](C(=O)N[C@@H](CCCNC(=N)N)C(=O)NCC(=O)N[C@@H](CCCNC(=N)N)C(=O)N[C@@H](CCCCNC(=O)COCCOCCNC(=O)COCCOCCNC(=O)CC[C@H](NC(=O)CCCCCCCCCCCCCCCCC(=O)O)C(=O)O)C(=O)NCC(=O)NCC(=O)N[C@@H](CO)C(=O)N[C@@H](CCCCNc1c(NCCCCCN(O)C(=O)CCC(=O)NCCCCCN(O)C(=O)CCC(=O)NCCCCCN(O)C(C)=O)c(=O)c1=O)C(=O)O)C(C)C", "test system": "rat, plasma", "setting": "intravenous, 20 nmol/kg", "quantity": "Vd", "result": "0.0845 L/kg"}
{"Structure (SMILES)": "COc1ccc2cc1Oc1ccc(cc1)C[C@H]1c3c(cc4c(c3Oc3cc5c(cc3OC)CCN(C)[C@@H]5C2)OCO4)CCN1C", "target or system": "MDCK", "test": "cell growth or viability, CCK-8", "setting": "48 h", "quantity": "CC50", "result": "68.3 µM"}
{"Structure (SMILES)": "CCOC(=O)C1=C(CN2CCN(Cc3ccc(B(O)O)cc3)CC2)NC(c2nccs2)=NC1c1ccc(F)cc1Br (stereo not shown)", "target or system": "HepDES19", "test": "cell growth or viability, MTS", "setting": "72 h", "quantity": "CC50", "result": "29.4 µM"}
{"Structure (SMILES)": "CC(C)C[C@H](NC(=O)[C@@H](NC(=O)c1cccnc1)C(C)C)C(=O)N[C@H](C=O)C[C@@H]1CCCNC1=O", "target or system": "A549", "test": "cell growth or viability, MTT", "setting": "24 h", "quantity": "CC50", "result": "> 100 µM"}
{"Structure (SMILES)": "COc1ccc2cc1Oc1ccc(cc1)C[C@H]1c3cc(c(OC)cc3CCN1C)Oc1c(OC)c(OC)cc3c1[C@H](C2)N(C)CC3", "target or system": "A549", "test": "cell growth or viability, CCK-8", "setting": "48 h", "quantity": "CC50", "result": "55.2 µM"}
{"Structure (SMILES)": "O=C[C@H](C[C@@H]1CCCNC1=O)NC(=O)[C@H](CC1CC1)NC(=O)/C=C/c1ccccc1", "target or system": "A549", "test": "cell growth or viability, MTT", "setting": "24 h", "quantity": "CC50", "result": "> 100 µM"}
{"Structure (SMILES)": "C[N+]1=C2C=C(N)C(=O)c3[nH]cc(c32)CC1", "target or system": "HCT-116", "test": "cell growth or viability, MTT", "setting": "72 h", "quantity": "CC50", "result": "0.78 µM"}
{"Structure (SMILES)": "COc1ccc(Nc2nn3c(-c4ccccc4)ccnc3c2C(=O)Nc2ccc(Cl)cc2)cc1", "target or system": "Caco-2", "test": "cell growth or viability, MTT", "setting": "25 µg/mL, 48 h, serum-free", "quantity": "viability", "result": "29.8%"}
{"Structure (SMILES)": "CCOC(=O)C1=C(CN2CCC(C(=O)Nc3ccc(B(O)O)cc3)C2)NC(c2nccs2)=NC1c1ccc(F)cc1Br (stereo not shown)", "target or system": "HepDES19", "test": "cell growth or viability, MTS", "setting": "72 h", "quantity": "CC50", "result": "26.8 µM"}
{"Structure (SMILES)": "CC(C)C[C@H](NC(=O)[C@@H](NC(=O)c1ccc(F)cc1)C(C)C)C(=O)N[C@H](C=O)C[C@@H]1CCCNC1=O", "target or system": "A549", "test": "cell growth or viability, MTT", "setting": "24 h", "quantity": "CC50", "result": "> 100 µM"}
{"Structure (SMILES)": "CCOC(=O)C1=C(CN2CCC(C(=O)Nc3cccc(B4OC(C)(C)C(C)(C)O4)c3)C2)NC(c2nccs2)=NC1c1ccc(F)cc1Br (stereo not shown)", "target or system": "HepDES19", "test": "cell growth or viability, MTS", "setting": "72 h", "quantity": "CC50", "result": "33.3 µM"}
{"Structure (SMILES)": "CC(C)C[C@H](NC(=O)[C@@H](NC(=O)c1ccccc1)C(C)C)C(=O)N[C@H](C=O)C[C@@H]1CCCNC1=O", "target or system": "A549", "test": "cell growth or viability, MTT", "setting": "24 h", "quantity": "CC50", "result": "> 100 µM"}
{"note": "Repeated from above:"}
{"Structure (SMILES)": "COc1ccc(Nc2nn3c(-c4ccccc4)ccnc3c2C(=O)Nc2ccc(Cl)cc2)cc1", "target or system": "Caco-2", "test": "cell growth or viability, MTT", "setting": "25 µg/mL, 48 h, serum-free", "quantity": "viability", "result": "29.8%"}
{"Structure (SMILES)": "CCOC(=O)C1=C(CN2CCC(C(=O)Nc3ccc(B(O)O)cc3)C2)NC(c2nccs2)=NC1c1ccc(F)cc1Br (stereo not shown)", "target or system": "HepDES19", "test": "cell growth or viability, MTS", "setting": "72 h", "quantity": "CC50", "result": "26.8 µM"}
{"Structure (SMILES)": "CC(C)C[C@H](NC(=O)[C@@H](NC(=O)c1ccc(F)cc1)C(C)C)C(=O)N[C@H](C=O)C[C@@H]1CCCNC1=O", "target or system": "A549", "test": "cell growth or viability, MTT", "setting": "24 h", "quantity": "CC50", "result": "> 100 µM"}
